# Results from different studies.
# A part holds a random share of what one study measured. “And” joins repeats or separate records; there may be more than shown.
# Sequence of UniProt Q96RI0 (whole entry, looked up): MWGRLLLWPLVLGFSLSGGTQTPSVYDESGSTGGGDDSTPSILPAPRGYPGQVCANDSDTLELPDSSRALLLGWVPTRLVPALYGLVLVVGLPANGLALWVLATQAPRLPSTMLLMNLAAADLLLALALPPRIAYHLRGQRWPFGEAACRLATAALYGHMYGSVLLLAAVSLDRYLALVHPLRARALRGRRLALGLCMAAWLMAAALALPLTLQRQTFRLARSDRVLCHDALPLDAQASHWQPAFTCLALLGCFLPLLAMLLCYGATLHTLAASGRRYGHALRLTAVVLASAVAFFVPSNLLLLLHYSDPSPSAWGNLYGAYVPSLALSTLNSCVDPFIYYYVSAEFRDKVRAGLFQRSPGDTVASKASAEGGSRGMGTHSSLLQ
# Sequence of UniProt P41595 (whole entry, looked up): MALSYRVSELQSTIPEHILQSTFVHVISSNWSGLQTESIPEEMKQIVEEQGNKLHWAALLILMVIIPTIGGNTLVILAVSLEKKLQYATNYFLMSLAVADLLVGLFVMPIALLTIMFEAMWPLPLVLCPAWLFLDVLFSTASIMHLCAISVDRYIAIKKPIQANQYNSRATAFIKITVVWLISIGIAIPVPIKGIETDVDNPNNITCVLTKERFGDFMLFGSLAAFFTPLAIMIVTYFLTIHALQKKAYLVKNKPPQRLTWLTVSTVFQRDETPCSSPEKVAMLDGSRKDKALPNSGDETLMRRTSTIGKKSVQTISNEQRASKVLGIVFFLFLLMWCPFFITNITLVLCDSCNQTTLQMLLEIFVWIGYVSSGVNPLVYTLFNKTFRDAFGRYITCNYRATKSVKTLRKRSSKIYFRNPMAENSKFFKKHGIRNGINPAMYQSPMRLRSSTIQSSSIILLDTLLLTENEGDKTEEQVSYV
# Sequence of UniProt Q969N4 (whole entry, looked up): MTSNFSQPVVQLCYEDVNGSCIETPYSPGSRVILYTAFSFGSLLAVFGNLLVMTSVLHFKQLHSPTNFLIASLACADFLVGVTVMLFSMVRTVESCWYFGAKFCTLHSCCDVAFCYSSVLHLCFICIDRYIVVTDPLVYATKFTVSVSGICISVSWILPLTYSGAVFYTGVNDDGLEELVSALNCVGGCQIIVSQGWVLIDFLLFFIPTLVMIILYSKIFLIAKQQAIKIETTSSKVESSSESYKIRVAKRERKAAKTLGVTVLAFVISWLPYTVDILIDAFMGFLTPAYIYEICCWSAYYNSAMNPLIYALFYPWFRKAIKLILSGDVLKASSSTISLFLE
# Sequence of UniProt Q13304 (whole entry, looked up): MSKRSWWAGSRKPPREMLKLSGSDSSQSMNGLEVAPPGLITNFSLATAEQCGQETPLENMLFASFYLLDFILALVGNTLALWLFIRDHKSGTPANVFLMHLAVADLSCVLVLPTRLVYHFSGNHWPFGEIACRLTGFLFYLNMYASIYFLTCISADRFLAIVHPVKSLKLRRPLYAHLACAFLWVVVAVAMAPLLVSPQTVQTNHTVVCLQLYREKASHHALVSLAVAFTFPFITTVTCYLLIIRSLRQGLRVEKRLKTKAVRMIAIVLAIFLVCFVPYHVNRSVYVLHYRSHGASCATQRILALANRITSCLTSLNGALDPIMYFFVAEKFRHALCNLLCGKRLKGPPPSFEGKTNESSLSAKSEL
# Sequence of UniProt Q13585 (whole entry, looked up): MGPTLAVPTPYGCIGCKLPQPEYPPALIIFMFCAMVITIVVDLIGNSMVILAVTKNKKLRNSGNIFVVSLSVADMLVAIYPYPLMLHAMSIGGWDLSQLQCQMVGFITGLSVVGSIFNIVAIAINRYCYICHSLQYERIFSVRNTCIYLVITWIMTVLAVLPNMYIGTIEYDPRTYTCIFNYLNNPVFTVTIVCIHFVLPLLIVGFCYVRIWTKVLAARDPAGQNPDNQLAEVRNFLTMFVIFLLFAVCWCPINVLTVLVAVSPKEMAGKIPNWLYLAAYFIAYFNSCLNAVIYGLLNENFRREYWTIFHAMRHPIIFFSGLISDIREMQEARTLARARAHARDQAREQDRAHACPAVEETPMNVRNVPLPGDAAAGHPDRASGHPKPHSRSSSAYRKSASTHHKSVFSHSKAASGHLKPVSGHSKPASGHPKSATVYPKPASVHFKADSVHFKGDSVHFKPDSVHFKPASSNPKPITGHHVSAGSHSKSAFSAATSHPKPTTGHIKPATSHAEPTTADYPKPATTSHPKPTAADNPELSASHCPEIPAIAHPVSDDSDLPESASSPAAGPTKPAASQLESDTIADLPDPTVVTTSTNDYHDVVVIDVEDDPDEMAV
# Sequence of UniProt P32249 (whole entry, looked up): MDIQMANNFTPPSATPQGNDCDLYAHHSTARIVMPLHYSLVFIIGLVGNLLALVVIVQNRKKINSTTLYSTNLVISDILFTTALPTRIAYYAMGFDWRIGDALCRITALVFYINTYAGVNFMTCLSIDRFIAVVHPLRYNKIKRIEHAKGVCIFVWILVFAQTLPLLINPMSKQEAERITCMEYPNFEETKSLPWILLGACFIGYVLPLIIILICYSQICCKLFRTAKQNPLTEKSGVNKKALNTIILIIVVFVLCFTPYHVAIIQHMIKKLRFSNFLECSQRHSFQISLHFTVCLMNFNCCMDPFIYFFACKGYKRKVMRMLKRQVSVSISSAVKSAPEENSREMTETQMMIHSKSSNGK
# Sequence of UniProt Q9H244 (whole entry, looked up): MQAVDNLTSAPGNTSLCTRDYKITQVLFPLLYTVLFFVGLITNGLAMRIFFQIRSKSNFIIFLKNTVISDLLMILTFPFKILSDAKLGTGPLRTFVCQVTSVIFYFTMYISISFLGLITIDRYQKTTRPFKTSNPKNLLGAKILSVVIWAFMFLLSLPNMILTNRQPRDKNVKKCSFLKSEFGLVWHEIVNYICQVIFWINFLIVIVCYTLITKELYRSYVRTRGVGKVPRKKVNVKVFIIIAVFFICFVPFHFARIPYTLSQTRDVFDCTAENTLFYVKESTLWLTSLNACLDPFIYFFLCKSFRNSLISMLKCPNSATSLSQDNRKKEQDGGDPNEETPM
# Sequence of UniProt Q6W5P4 (whole entry, looked up): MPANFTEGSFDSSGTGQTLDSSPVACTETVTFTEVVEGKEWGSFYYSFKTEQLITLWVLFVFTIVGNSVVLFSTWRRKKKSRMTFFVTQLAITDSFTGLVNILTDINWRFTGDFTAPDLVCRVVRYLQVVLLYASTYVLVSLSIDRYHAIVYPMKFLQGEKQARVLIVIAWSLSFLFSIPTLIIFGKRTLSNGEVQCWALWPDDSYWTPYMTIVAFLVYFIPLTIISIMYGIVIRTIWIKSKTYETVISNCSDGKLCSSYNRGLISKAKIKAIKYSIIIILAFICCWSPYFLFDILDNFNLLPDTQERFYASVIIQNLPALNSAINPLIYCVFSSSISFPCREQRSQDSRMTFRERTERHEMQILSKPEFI
# Sequence of UniProt Q9NSD7 (whole entry, looked up): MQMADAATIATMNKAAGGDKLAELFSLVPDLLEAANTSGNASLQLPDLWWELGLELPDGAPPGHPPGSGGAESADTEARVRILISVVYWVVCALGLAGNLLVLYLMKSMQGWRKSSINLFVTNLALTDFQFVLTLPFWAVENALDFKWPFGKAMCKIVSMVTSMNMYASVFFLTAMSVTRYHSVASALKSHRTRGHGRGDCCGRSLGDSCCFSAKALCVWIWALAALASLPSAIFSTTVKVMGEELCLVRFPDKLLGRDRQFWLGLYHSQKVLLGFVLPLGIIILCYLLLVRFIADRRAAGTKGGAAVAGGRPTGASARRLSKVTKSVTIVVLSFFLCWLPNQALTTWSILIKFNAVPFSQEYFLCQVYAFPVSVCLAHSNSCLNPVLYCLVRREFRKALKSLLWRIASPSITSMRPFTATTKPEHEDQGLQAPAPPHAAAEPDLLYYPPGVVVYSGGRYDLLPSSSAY
# Sequence of UniProt Q15722 (whole entry, looked up): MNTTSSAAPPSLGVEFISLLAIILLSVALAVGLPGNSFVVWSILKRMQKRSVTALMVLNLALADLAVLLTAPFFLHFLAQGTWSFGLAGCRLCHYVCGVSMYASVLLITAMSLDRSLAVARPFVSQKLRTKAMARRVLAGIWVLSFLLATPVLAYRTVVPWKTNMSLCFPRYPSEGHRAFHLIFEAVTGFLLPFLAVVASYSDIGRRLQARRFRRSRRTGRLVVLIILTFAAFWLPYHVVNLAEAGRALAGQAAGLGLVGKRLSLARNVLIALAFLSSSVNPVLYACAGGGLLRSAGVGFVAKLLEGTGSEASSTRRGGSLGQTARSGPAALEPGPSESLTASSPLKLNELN
# Sequence of UniProt Q9NS67 (whole entry, looked up): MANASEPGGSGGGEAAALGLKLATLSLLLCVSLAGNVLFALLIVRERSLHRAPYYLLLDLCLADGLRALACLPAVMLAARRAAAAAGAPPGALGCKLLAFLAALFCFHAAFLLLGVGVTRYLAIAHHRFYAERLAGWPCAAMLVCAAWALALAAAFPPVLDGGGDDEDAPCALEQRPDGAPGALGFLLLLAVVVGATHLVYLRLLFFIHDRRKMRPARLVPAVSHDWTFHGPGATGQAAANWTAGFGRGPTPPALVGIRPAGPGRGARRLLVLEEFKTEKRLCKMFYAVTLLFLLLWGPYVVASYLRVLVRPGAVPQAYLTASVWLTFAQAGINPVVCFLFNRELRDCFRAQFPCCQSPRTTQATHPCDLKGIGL
# Sequence of UniProt Q9BY21 (whole entry, looked up): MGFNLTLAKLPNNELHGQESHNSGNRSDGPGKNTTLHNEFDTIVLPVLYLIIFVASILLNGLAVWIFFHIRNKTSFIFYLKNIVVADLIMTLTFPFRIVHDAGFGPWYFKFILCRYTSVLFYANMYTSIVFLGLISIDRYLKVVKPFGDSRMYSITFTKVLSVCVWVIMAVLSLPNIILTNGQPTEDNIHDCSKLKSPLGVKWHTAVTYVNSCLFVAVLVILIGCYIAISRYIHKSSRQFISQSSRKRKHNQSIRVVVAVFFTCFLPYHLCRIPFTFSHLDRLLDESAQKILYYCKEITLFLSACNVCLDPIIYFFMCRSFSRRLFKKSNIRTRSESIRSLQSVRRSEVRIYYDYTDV

# Set 1
# Host: human
# Sample: microsomes or S9
# Tested at: 2 µM
# Time: 0.5 h
Structure (SMILES),remaining compound [%]
CC(C)(C)C(=O)N1CCC(C(=O)OCc2ccc(C(N)=O)cc2)CC1,78.2
C/C(=C\c1ccc(C(=O)O)cc1)CN1CCN(c2ccccn2)CC1,49.2
O=C(c1c(OCC2CC2)cc(=O)n2c1CCOCC2)N1CCN(c2ccccc2)CC1,74.6
CN(C)C(=O)NC1CCC(Nc2ncnc3[nH]ccc(=O)c23)CC1 (stereo not drawn),> 99.9
O=C(CCn1c2c(c3ccccc31)CCn1c-2nc2ccccc2c1=O)N1CCN(Cc2cccnc2)CC1,3.2
COc1cc2c(Nc3cccc(Br)c3)ncnc2cc1OCC1CNCCO1 (stereo not drawn),> 99.9
CCn1c(=O)n(CC)c2cc(NS(C)(=O)=O)c(Br)cc21,95
CC(C)=CCO[C@H]1CCOC[C@H]1Nc1ncc(F)c(N2CCOCC2)n1,1.21
Cc1ccc(-c2sc3cc(Br)ccc3c2-c2ccc(C)cc2)cc1,73
O=C1Cn2nnc(C(=O)c3ccccc3)c2C2(CCCCC2)O1,> 100
Cn1nc(CNC(=O)c2cccn(C)c2=O)c2c1CCCC2,62.2
Cc1cccc(C)c1C1=NOC(C)(CS(=O)(=O)C2=NOC(C)(C)C2)C1 (stereo not drawn),> 100
CC(=O)N1c2nc(-c3ccco3)nn2C2(CCCCC2)[C@@H]2CCCC[C@@H]21,0.372
Cc1ccc(S(=O)(=O)c2nc(S(C)(=O)=O)sc2NC2CCS(=O)(=O)C2)cc1 (stereo not drawn),> 99
O=C(C(Nc1ccc(N2CCCS2(=O)=O)cc1)c1ccccc1)N1CCCC1 (stereo not drawn),81.4
COC(=O)c1c(C)n(C(C)=O)c2ccc(NS(=O)(=O)c3ccc(F)cc3F)cc12,0.213
Cc1oc(-c2nc(C#N)c(N(C)C)o2)cc1S(=O)(=O)N(C)c1ccccc1,92.8
CCc1nnc(NCc2ccccc2F)c2cc3sc(C)cc3n12,76

# Set 2
# Cell line: normal-adjacent epithelial organoid
# Read-out: cell viability
# Technique: CellTiter-Glo
# Host: human
# Sample: patient-derived organoid
# Tested at: 1 µM
# Baseline: DMSO
Structure (SMILES),viability
O=C(NC[C@@H]1[C@H]2CN(C(=O)OCc3cc(C(F)(F)F)cc(C(F)(F)F)c3)C[C@@H]12)c1ccc2[nH]nnc2c1,99.7%
Cc1nc(N2CC[C@@H](O)C2)ncc1-c1cc(C(F)(F)F)cc2[nH]ncc12,81.3% and 98%
CC1=C(C#N)C(c2ccc3[nH]nc(C)c3c2)C(C#N)=C(C)N1,104% and 88%
c1ccc2oc(-c3csc(C4CCN(Cc5nc6ncccc6[nH]5)CC4)n3)cc2c1,63.9%
CNCc1ccccc1-c1csc([C@@H](C)Nc2nc(C)nc3cc(OC)c(OC)cc23)c1,92.4%
CC(=O)N1CCC(c2ccc(C(=O)NC(=N)N)cc2C(F)(F)F)CC1,91.5% and 90.4%
O=C(NCCN1CCOCC1)c1ccc2c(c1)C(=O)c1ccc(Nc3ccc(F)c(NC(=O)c4ccccc4)c3)cc1CC2,94.6%
O=C(N1CCS(=O)(=O)CC1)N1C[C@H](c2ccc(OC(F)(F)F)cc2)C[C@H](c2nc(C3CC3)no2)C1,110% and 109%
CCS(=O)(=O)c1cc2cc(C[C@](O)(CC(C)(C)c3ccc(F)cc3C(N)=O)C(F)(F)F)[nH]c2cn1,113%
Cn1c(-c2csc(C3CCN(Cc4nc5ncccc5[nH]4)CC3)n2)nc2ccccc21,98.5%
C[C@H](NC(=O)Nc1cc2[nH]ncc2c(CO)n1)c1ccccn1,122% and 94.7%
c1ccc(N2CCN(Cc3nc4ccccc4[nH]3)CC2)nc1,84.3% and 96%
CC(=O)c1c(NS(C)(=O)=O)c2cc(-c3ccc(Cl)cc3)c(-c3ccc(Cl)cc3Cl)nc2n(C)c1=O,109% and 132%
CCc1ccccc1C(=O)Nc1n[nH]c2c(C)c(F)c(C3C(C#N)=C(C)N(C)C(C)=C3C#N)cc12,84.8%
CCOCCn1cc(C(=O)Nc2ccc(-n3nc(-c4cccnc4)cc3C(F)(F)F)cn2)ccc1=O,114%

# Set 3
# Organism: Sarcocystis neurona
# Read-out: parasite growth
# Tested at: 10 µM
# Time: 96 h
# Notes: second screen
# Baseline: untreated
Compound,log2 fold change
CCCCC1=NC2(CCCC2)C(=O)N1Cc1ccc(-c2ccccc2-c2nnn[nH]2)cc1,0.17
CC(C)C(=O)Nc1ccc([N+](=O)[O-])c(C(F)(F)F)c1,0.47
Cc1ccc(Cl)c(Nc2ccccc2C(=O)O)c1Cl,0.37
COc1cc2nc(N3CCN(C(=O)C4COc5ccccc5O4)CC3)nc(N)c2cc1OC (stereo not drawn),-1.92
OCCN1C[C@H](O)[C@@H](O)[C@H](O)[C@H]1CO,-0.00693
Cc1c(O)c(=O)ccn1C,0.47
CC(CCc1ccccc1)NCC(O)c1ccc(O)c(C(N)=O)c1 (stereo not drawn),0.56
CCOC(=O)[C@H](CCc1ccccc1)N[C@H]1CCc2ccccc2N(CC(=O)O)C1=O,0.16
CCCCC(=O)N(Cc1ccc(-c2ccccc2-c2nnn[nH]2)cc1)[C@H](C(=O)O)C(C)C,0.59
CCOC(=O)[C@@]1(CCCCCCOc2ccc(Cl)cc2)CO1,0.19
COc1ccccc1OCC(O)CN1CCN(CC(=O)Nc2c(C)cccc2C)CC1 (stereo not drawn),0.23

# Set 4
# Compound: CC(C)CN(C)c1nc(N)c(C(=O)N=C(N)N)nc1Cl
# Read-out: β-arrestin recruitment
# Action: agonist
# Technique: PRESTO-Tango
# Tested at: 10 µM
# Baseline: untreated
target,fold over basal
"G-protein coupled receptor 6 (Homo sapiens, UniProt P46095)",1.17
"Melatonin-related receptor (GPR50, Homo sapiens, UniProt Q13585)",0.72
"Leukotriene B4 receptor 1 (LTB4R, Homo sapiens, UniProt Q15722)",0.7
"Trace amine-associated receptor 8 (TAAR8, Homo sapiens, UniProt Q969N4)",0.65 fold
"Uracil nucleotide/cysteinyl leukotriene receptor (GPR17, Homo sapiens, UniProt Q13304)",0.85
"G-protein coupled receptor 87 (GPR87, Homo sapiens, UniProt Q9BY21)",1.21
"5-hydroxytryptamine receptor 2B (HTR2B, Homo sapiens, UniProt P41595)",1.06
"P2Y purinoceptor 12 (P2RY12, Homo sapiens, UniProt Q9H244)",0.76
"Neuropeptide S receptor (NPSR1, Homo sapiens, UniProt Q6W5P4)",0.84
"G-protein coupled receptor 183 (GPR183, Homo sapiens, UniProt P32249)",1.16
"Relaxin-3 receptor 1 (RXFP3, Homo sapiens, UniProt Q9NSD7)",1.24
"Proteinase-activated receptor 4 (F2RL3, Homo sapiens, UniProt Q96RI0)",0.47 fold
"Probable G-protein coupled receptor 27 (Homo sapiens, UniProt Q9NS67)",0.91

# Repeated from above (set 1):
Structure (SMILES),remaining compound [%]
Cc1ccc(-c2sc3cc(Br)ccc3c2-c2ccc(C)cc2)cc1,73
O=C(CCn1c2c(c3ccccc31)CCn1c-2nc2ccccc2c1=O)N1CCN(Cc2cccnc2)CC1,3.2
CCn1c(=O)n(CC)c2cc(NS(C)(=O)=O)c(Br)cc21,95
CC(C)=CCO[C@H]1CCOC[C@H]1Nc1ncc(F)c(N2CCOCC2)n1,1.21
O=C(c1c(OCC2CC2)cc(=O)n2c1CCOCC2)N1CCN(c2ccccc2)CC1,74.6
CC(=O)N1c2nc(-c3ccco3)nn2C2(CCCCC2)[C@@H]2CCCC[C@@H]21,0.372
CN(C)C(=O)NC1CCC(Nc2ncnc3[nH]ccc(=O)c23)CC1 (stereo not drawn),> 99.9
Cn1nc(CNC(=O)c2cccn(C)c2=O)c2c1CCCC2,62.2
